Published values collected from several papers.
Protocols differ between the studies behind these lines. “And” joins repeats or separate records; there may be more than shown. ± marks the error that the study gave.
Sequence of UniProt P48047 (whole entry, looked up): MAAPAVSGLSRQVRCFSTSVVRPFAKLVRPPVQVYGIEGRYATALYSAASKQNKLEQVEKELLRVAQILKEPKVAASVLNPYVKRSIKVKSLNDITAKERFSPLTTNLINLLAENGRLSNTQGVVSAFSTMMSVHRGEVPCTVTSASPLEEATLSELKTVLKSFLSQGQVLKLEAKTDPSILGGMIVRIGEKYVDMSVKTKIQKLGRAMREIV
Sequence of UniProt P55211 (whole entry, looked up): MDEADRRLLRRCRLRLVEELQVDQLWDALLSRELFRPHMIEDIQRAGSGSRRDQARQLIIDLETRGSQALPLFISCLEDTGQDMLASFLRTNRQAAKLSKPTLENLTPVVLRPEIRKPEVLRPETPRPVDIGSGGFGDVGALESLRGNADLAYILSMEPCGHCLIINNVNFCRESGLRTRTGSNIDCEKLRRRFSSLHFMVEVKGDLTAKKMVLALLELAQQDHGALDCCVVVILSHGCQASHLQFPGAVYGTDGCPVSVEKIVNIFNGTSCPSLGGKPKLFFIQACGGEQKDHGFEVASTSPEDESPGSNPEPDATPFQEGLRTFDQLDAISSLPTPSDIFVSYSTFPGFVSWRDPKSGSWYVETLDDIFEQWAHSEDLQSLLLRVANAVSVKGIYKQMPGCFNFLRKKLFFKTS

| Compound | target or system | test | test system | setting | scale | endpoint | result |
| --- | --- | --- | --- | --- | --- | --- | --- |
| CC[C@H](C)[C@@H]1NC(=O)[C@@H]2CCCN2C(=O)[C@H](CC(C)C)NC(=O)[C@H](CC(C)C)NC(=O)CNC(=O)[C@@H](NC(=O)[C@@H](NC(=O)[C@H](CC(=O)O)NC(=O)CNC(=O)[C@@H](NC(=O)[C@H](C)NC(=O)CNC(=O)[C@H](CCCCN)NC(=O)[C@H](CC(C)C)NC(=O)[C@H](CC(C)C)NC(=O)[C@H](CCCCN)NC(=O)CNC(=O)[C@@H](NC(=O)[C@@H](N)CC(C)C)C(C)C)C(C)C)C(C)C)CSSC[C@@H](C(=O)O)NC1=O |  | RNA-seq, item: Junb mRNA | mouse traumatic brain injury, frontal cortex and hippocampus | dose not given | relative to: TBI plus compound vs TBI | log2 fold change | -2.4 |
| CSCC[C@@H]1NC(=O)[C@H](Cc2c[nH]c3ccccc23)NC(=O)[C@@H](NC(=O)CCNC(=O)[C@H](CCC(N)=O)NC(=O)[C@@H]2CCCN2C(=O)[C@@H]2CCCN2C(=O)[C@H](CCCNC(=N)N)NC(=O)[C@H](CCCNC(=N)N)NC(=O)[C@H](CCCNC(=N)N)NC(=O)[C@H](CCC(N)=O)NC(=O)[C@H](CCCNC(=N)N)NC(=O)[C@H](CCCNC(=N)N)NC(=O)[C@H](CCCCN)NC(=O)[C@H](CCCCN)NC(=O)[C@H](CCCNC(=N)N)NC(=O)CN)CSSC[C@@H](C(=O)O)NC(=O)[C@H]([C@@H](C)O)NC(=O)CNC(=O)[C@H](CC(C)C)NC(=O)[C@H](Cc2c[nH]cn2)NC(=O)[C@H](CCCNC(=N)N)NC(=O)[C@@H]2CCCN2C(=O)[C@H](CO)NC1=O |  | immunohistochemistry | NCI-H226 xenograft mouse, tumour tissue | intravenous, 2 mg/kg, day 16 |  | CDC37 staining | 0.12 ± 0.014 IOD/area |
| COc1c(CCC[P+](c2ccccc2)(c2ccccc2)c2ccccc2)cc2c(c1OC)OCO2.[I-] | NCI-H460 | SRB |  |  |  | TGI | -5.34 log M |
| CCCCCCCCCCCCCCCCCCOCC(COP(=O)([O-])OCC[N+](C)(C)C)OC (stereo not shown) |  | calcium response, decay phase | N2a, mouse | 10 µM, with: ATP 300 µM |  | inhibition | 41% |
| FC(F)(F)c1ccc2c(c1)[C@@H]1CNC[C@H]2C1 |  | intermittent two-bottle choice | Wistar rat, 20% ethanol drinking | subcutaneous, 5 mg/kg, 6 h | relative to: ethanol over total fluid intake | ethanol preference | 38 ± 3% |
| CC[C@@H](C)[C@@H](NC(=O)[C@@H](Cc1ccc(O)cc1)NC(=O)[C@H]1CCCN1C(=O)[C@@H](CCCNC(=N)N)NC(=O)[C@H](N)Cc1c[nH]cn1)C(=O)N[C@H](C)C(=O)N[C@H](Cc1c[nH]cn1)C(=O)N[C@H](CCCNC(=N)N)C(=O)N[C@H](CCCCNC(=O)c1cccc(S(=O)(=O)F)c1)C(=O)N[C@H](Cc1ccc(O)cc1)C(=O)N[C@H](CO)C(=O)N[C@H](Cc1ccccc1)C(N)=O |  | ex vivo flow cytometry | GL261-Luc brain tumour mice, tumour | dose not given |  | IFN-γ+ CD8+ T cell frequency | 19.3% and 15.1% and 14.3% |
| C[C@@H](O)[C@@H](CO)NC(=O)[C@@H](CCCNC(=N)N)NC(=O)[C@@H]1CCCN1C(=O)[C@@H]1CSSC[C@H](NC(=O)[C@H](Cc2ccccc2)NC(=O)CN2CCN(CC(=O)O)CCN(CC(=O)O)CCN(CC(=O)O)CC2)C(=O)N[C@@H](Cc2ccc(O)cc2)C(=O)N[C@@H](Cc2ccccc2)C(=O)N[C@@H](CCC(N)=O)C(=O)N[C@@H](CC(N)=O)C(=O)N1 [gallium-68 labelled] |  |  | Wistar rat, lungs | intravenous, 8 MBq, 120 min, group mean |  | tissue uptake | 0.08 %ID/g |
| CC(=O)NC1CCN(c2ncnc3[nH]cc(-c4cccc(Cl)c4)c23)CC1 |  | Western blot, item: MOB1 Thr35 phosphorylation | C57BL/6 mice, liver | intraperitoneal, 20 mg/kg, 1 h | relative to: vehicle | phospho-MOB1 level | decreased |
| CS(=O)(=O)c1ccc(-c2nnc(/C=C/c3nnc(-c4ccc(C#N)cc4)o3)n2-c2ccccc2Cl)nc1 |  | RNA-seq GSEA, item: FALLER_ENTEROCYTE_MOUSE | organoids, small intestinal, Apc Q1405X, mouse | dose not given, 3 days, wild-type organoids | relative to: DMSO, direction not given | normalized enrichment score | 2.91 |
| CCCCC1CNC2CCc3ccc(OC)cc3C12.Cl (racemic) |  | RNA sequencing, item: ATP synthase subunit genes | SAMP8 mice, hippocampus | intracerebroventricular, 1.0 µg/µL, 24 h | relative to: vehicle | mRNA level | increased |
| CCCCC1(CCCC)CN(c2ccccc2)c2cc(SC)c(OCC(=O)N[C@@H](C(=O)NCC(=O)O)c3ccccc3)cc2S(=O)(=O)C1 |  | item: LDL cholesterol | human, serum | 20 mg once daily, day 14 |  | serum LDL-C | 75.3 mg/dL |
| NNc1ccccc1 |  | hydrazine ligation kinetics, absorbance |  | concentration not given, 35 s, with: 2-formylphenylboronic acid |  | normalised absorbance | 0.899 |
| C[C@H]1CN(c2n[nH]c3nc(N[C@H]4CC[C@H](NS(=O)(=O)CCC(F)(F)F)CC4)ncc23)CCO1 | ATP synthase peripheral stalk subunit OSCP, mitochondrial (Homo sapiens, UniProt P48047) | Kinobeads competition, item: ATP5O |  | 0.8 µM, unit not given | relative to: vehicle | remaining binding | 1.41 |
| COc1cc(CCC[P+](c2ccccc2)(c2ccccc2)c2ccccc2)c(OC)c2c1OCO2.[I-] | SF-295 | SRB |  |  |  | LC50 | -4.54 log M |
| Cc1nc(Nc2ccc(CC(=O)O)cc2)nc(Nc2ccc(F)c(C(F)(F)F)c2)c1C |  | item: ACC1 | C57BL/6J mice, high-fat diet, liver | intraperitoneal, 0.3 mg/kg daily, 60% fat diet 12 weeks, dosed last four | relative to: vehicle | mRNA level | decreased |
| COc1cc(Nc2ncc(F)c(Nc3ccc4c(n3)NC(=O)C(C)(C)O4)n2)cc(OC)c1OC | Caspase-9 (CASP9, Homo sapiens, UniProt P55211) |  |  |  |  | IC50 | > 10 µM |
| COc1cc2c(Oc3ccc4[nH]c(C)cc4c3F)ccnc2cc1OCC1(N)CC1 |  |  | paediatric recurrent refractory sarcoma | 12 mg |  | grade 3 weight loss | 0% |
| O=c1c(O)c(-c2ccc(O[C@@H]3O[C@H](CO)[C@@H](O)[C@H](O)[C@H]3O)c(O)c2)oc2cc(O)cc(O)c12 |  | DMPD radical scavenging |  |  |  | IC50 | 8.15 µg/mL |
| C[C@]12CC[C@H](O)C[C@H]1CC[C@@H]1[C@@H]2CC[C@]2(C)[C@@H](c3ccc(=O)oc3)CC[C@]12O |  |  | female nude mouse LCC2 xenograft | 1.0 mg/kg, day 9, tamoxifen-resistant |  | tumour volume | 44 mm3 and 68.9 mm3 and 32.2 mm3 and 34.7 mm3 and 37.8 mm3 and 46.6 mm3 and 33.2 mm3 |
| CC[C@H](C)[C@H](NC(=O)[C@H](Cc1ccccc1)NC(=O)[C@H](CCC(=O)O)NC(=O)[C@H](CCCNC(=N)N)NC(=O)[C@H](C)NC(=O)[C@H](C)NC(=O)[C@H](CCC(N)=O)NC(=O)[C@H](CCC(=O)O)NC(=O)[C@H](CCC(=O)O)NC(=O)[C@H](CC(C)C)NC(=O)[C@H](Cc1ccc(O)cc1)NC(=O)[C@H](CO)NC(=O)[C@H](CO)NC(=O)[C@@H](NC(=O)[C@H](CC(=O)O)NC(=O)[C@H](CO)NC(=O)[C@@H](NC(=O)[C@H](Cc1ccccc1)NC(=O)[C@@H](NC(=O)CNC(=O)[C@H](CCC(=O)O)NC(=O)[C@H](C)NC(=O)CCc1c[nH]cn1)[C@@H](C)O)[C@@H](C)O)C(C)C)C(=O)N[C@@H](C)C(=O)N[C@@H](Cc1c[nH]c2ccccc12)C(=O)N[C@@H](CC(C)C)C(=O)N[C@H](C(=O)N[C@@H](CCCNC(=N)N)C(=O)NCC(=O)N[C@@H](CCCNC(=N)N)C(=O)N[C@@H](CCCCNC(=O)COCCOCCNC(=O)COCCOCCNC(=O)CC[C@H](NC(=O)CCCCCCCCCCCCCCCCC(=O)O)C(=O)O)C(=O)NCC(=O)NCC(=O)N[C@@H](CO)C(=O)N[C@@H](CCCCNc1c(NCCCCCN(O)C(=O)CCC(=O)NCCCCCN(O)C(=O)CCC(=O)NCCCCCN(O)C(C)=O)c(=O)c1=O)C(=O)O)C(C)C [zirconium-89 labelled] |  |  | rat, duodenum | sc, 3 nmol/kg, 72 h, ex vivo |  | tissue uptake | 0.11 %ID/g |
| CC(C)C1CCC(N2CCC(N3C(=O)/C(=N\O)c4ccccc43)CC2)CC1 (stereo not shown) |  |  | conscious Sprague-Dawley rat | intravenous bolus, 100 nmol/kg |  | heart rate | decreased |
| C[C@H]1O[C@@H](O[C@H]2CC[C@@]3(C)[C@@H](CC[C@]4(C)[C@@H]3C=C[C@]35OC[C@@]6(CCC(C)(C)C[C@H]63)[C@@H](O)C[C@]54C)[C@]2(C)CO)[C@H](O)[C@@H](O[C@@H]2O[C@H](CO)[C@@H](O)[C@H](O)[C@H]2O)[C@H]1O |  | H&E staining | AAV8-null control mice, no ethanol, liver | dose not given, high dose |  | steatosis area | 5.08% and 6.32% and 5.52% and 5.93% and 3.91% and 6.26% and 4.8% and 4.71% |
| CCCCCCn1c(O)c(N=NC(=O)c2ccccc2)c2ccccc21 |  | drug discrimination | mouse trained THC 5.6 mg/kg vs vehicle | ip, 30 mg/kg |  | maximum THC-appropriate responding | 77% |
| CC[C@H](C)[C@H](NC(=O)[C@H](CCC(=O)O)NC(=O)[C@H](CCCNC(=N)N)NC(=O)[C@H](CCCNC(=N)N)NC(=O)[C@H](CCCNC(=N)N)NC(=O)[C@H](CCC(N)=O)NC(=O)[C@H](CCCNC(=N)N)NC(=O)[C@H](CCCNC(=N)N)NC(=O)[C@H](CCCCN)NC(=O)[C@H](CCCCN)NC(=O)[C@H](CCCNC(=N)N)NC(=O)CNC(=O)[C@H](Cc1ccc(O)cc1)NC(C)=O)C(=O)N[C@@H](CC(=O)O)C(=O)N[C@@H](Cc1c[nH]cn1)C(=O)N[C@@H](CC(=O)O)C(N)=O |  |  | db/db mouse, hippocampal CA1 | intravenous, dose not given, weekly |  | Iba1-positive microglia number | decreased |
| Cc1cn(-c2cc(NC(=O)c3ccc(C)c(Nc4nccc(-c5cccnc5)n4)c3)cc(C(F)(F)F)c2)cn1 |  |  | Homo sapiens | 150 mg, 6 months | direction not given | ADAS-Cog score | 32.1 ± 9.1 |
| CO[C@H]1C[C@@H]2CC[C@@H](C)[C@@](O)(O2)C(=O)C(=O)N2CCCC[C@H]2C(=O)O[C@H]([C@H](C)C[C@@H]2CC[C@@H](OC(=O)NCCOCCOCCOCCOCCOCCOCCOCCOCCC(=O)N3CCc4cc(Cn5nc(-c6ccc7oc(N)nc7c6)c6c(N)ncnc65)ccc4C3)[C@H](OC)C2)C[C@@H](O)[C@H](C)/C=C(\C)[C@@H](O)[C@@H](OC)C(=O)[C@H](C)C[C@H](C)/C=C/C=C/C=C/1C |  | phase 1 dose escalation, item: gastric haemorrhage | advanced solid tumour patients | intravenous, 6 mg weekly, grade ≥3 |  | dose-reducing adverse events | 0% |
| CN1CC[C@@H](c2c(O)cc(O)c3c(=O)cc(-c4ccc(C(F)(F)F)cc4Cl)oc23)[C@@H]1CO |  | item: urinary incontinence | AML | oral, 150 mg, grade 3 to 4, intermittent dosing |  | patients with adverse event | 25% |
| CN1CCN(S(=O)(=O)c2cc([N+](=O)[O-])ccc2N(CCOS(C)(=O)=O)CCOS(C)(=O)=O)CC1 |  |  | NSG mice, sample BE PDX | intraperitoneal, 25 mg/kg weekly x3 |  | event-free survival | > 372 days |

For quick reference, copied from above:
| Compound | target or system | test | test system | setting | scale | endpoint | result |
| --- | --- | --- | --- | --- | --- | --- | --- |
| CSCC[C@@H]1NC(=O)[C@H](Cc2c[nH]c3ccccc23)NC(=O)[C@@H](NC(=O)CCNC(=O)[C@H](CCC(N)=O)NC(=O)[C@@H]2CCCN2C(=O)[C@@H]2CCCN2C(=O)[C@H](CCCNC(=N)N)NC(=O)[C@H](CCCNC(=N)N)NC(=O)[C@H](CCCNC(=N)N)NC(=O)[C@H](CCC(N)=O)NC(=O)[C@H](CCCNC(=N)N)NC(=O)[C@H](CCCNC(=N)N)NC(=O)[C@H](CCCCN)NC(=O)[C@H](CCCCN)NC(=O)[C@H](CCCNC(=N)N)NC(=O)CN)CSSC[C@@H](C(=O)O)NC(=O)[C@H]([C@@H](C)O)NC(=O)CNC(=O)[C@H](CC(C)C)NC(=O)[C@H](Cc2c[nH]cn2)NC(=O)[C@H](CCCNC(=N)N)NC(=O)[C@@H]2CCCN2C(=O)[C@H](CO)NC1=O |  | immunohistochemistry | NCI-H226 xenograft mouse, tumour tissue | intravenous, 2 mg/kg, day 16 |  | CDC37 staining | 0.12 ± 0.014 IOD/area |
| FC(F)(F)c1ccc2c(c1)[C@@H]1CNC[C@H]2C1 |  | intermittent two-bottle choice | Wistar rat, 20% ethanol drinking | subcutaneous, 5 mg/kg, 6 h | relative to: ethanol over total fluid intake | ethanol preference | 38 ± 3% |
